Measurements pooled from the literature.
A part holds a random share of what one study measured.

Sample 1
Target: RNA binding protein fox-1 homolog 2, RRM domain, GST-SBP tag (RBFOX2, Homo sapiens, UniProt O43251-10, residues 100-194)
Technique: RNA Bind-n-Seq
Form: RNA
Medium: in vitro
Concentration: 365 nM
Setting: natural RNA segment, single round, ends assumed
Reference: no-protein control
Reading: higher = stronger binding
All sequences stand within: GGGAGUUCUACAGUCCGACGAUC … UGGAAUUCUCGGGUGCCAA
Target sequence (chain): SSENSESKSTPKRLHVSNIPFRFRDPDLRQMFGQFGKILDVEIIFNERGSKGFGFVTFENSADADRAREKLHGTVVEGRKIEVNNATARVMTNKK
Under “RBNS enrichment (R)”, `GCAAAGGUGUAGAACACAUUUUUUCAAAGACUAAAUCUAAAACCCAGAGUAAACAUCCGAUGCUCAGAGUUAGCAUAAUUUGGAGCUAUUCAGGAAUUGCAGAGAAAUGC` is recorded as 0.603.
Under “RBNS enrichment (R)”, `UGCAGCCCCCGGAGGCCCCGCUGAAACCUGGGCUGCCCUUCCCCCACCCCCACGGCUCUCCUGGUUGAGGAGGGAGGGGCCUGGCUGACCCCUCCAGCUUCAGCCUCCAG` is recorded as 0.318.
For `UGAGCUUCAGGGCUGCGUGGAAAGAGUUUUUACUCUCUUUUUCUAGCCUGUAUACCAGGCUUUUCCCCACAUUGUCAGGUAGAGCACCAGCUUCCCUGACCGCUGCUGCU`, “RBNS enrichment (R)” read 0.265.
For `GCCCUGCAGGGCCCUGGGCUCCUGUCUGCUGAUGCUGCCCGCCUCACCUGCAGAGGUGCCCAUCAGGGCGAGUUCUCAGGUGUCUGUUGCUGUGCCAUGGGGGCCUUCUU`, “RBNS enrichment (R)” read 0.374.
`CAGCAUGUGGCGGUCUGUGUGAAGCCACCGUGCUUCUCUUUGGGGGGCCGCGAGAUCUAGCAUCUCUGAAAUCCUGGCUGUCGAGGCUUUGAAGCAUGUGUUACCUGGUU`: “RBNS enrichment (R)” 19.5.
Under “RBNS enrichment (R)”, `GAUUGCCUUUAAUAUUUUGUAAUAUUCUGUUUUGUUAAUAUACCCCAAAUUGUGUAUAUAUCUUAUAACUGUUUUAGAAAUUGGUACAUAGGCUUCUAUUACCUAUUAGG` is recorded as 0.568.
`CUUAGCCCGAGGGUAGAAGUUGAUGUCAUGUCAGAUAGUUGGUGAAGACCUUUCUAGGGGGCCUGGUUCUGGACCCGCUACCACUGGCCUCAAGACUCUUUUGCCUCAGU`: “RBNS enrichment (R)” 0.34.

Sample 2
Target: Interferon regulatory factor 7, full length, phosphomimetic (IRF7, Homo sapiens, UniProt Q92985, residues 1-503, S471D/S472D/S475D/S476D/S477D/S483D/S484D/S487D)
Technique: protein-binding microarray
Form: double-stranded DNA, one strand shown
Medium: in vitro
Concentration: 2200 nM top
Setting: 60-bp whole probe
Together with: salmon DNA 0.4 mg/ml
Reference: random background probes
Reading: higher = stronger binding
All sequences stand within: GCCTAGCAC … GTGCTAGGTCTTGATTCGCTTGACGCTGCTG
Target sequence (chain): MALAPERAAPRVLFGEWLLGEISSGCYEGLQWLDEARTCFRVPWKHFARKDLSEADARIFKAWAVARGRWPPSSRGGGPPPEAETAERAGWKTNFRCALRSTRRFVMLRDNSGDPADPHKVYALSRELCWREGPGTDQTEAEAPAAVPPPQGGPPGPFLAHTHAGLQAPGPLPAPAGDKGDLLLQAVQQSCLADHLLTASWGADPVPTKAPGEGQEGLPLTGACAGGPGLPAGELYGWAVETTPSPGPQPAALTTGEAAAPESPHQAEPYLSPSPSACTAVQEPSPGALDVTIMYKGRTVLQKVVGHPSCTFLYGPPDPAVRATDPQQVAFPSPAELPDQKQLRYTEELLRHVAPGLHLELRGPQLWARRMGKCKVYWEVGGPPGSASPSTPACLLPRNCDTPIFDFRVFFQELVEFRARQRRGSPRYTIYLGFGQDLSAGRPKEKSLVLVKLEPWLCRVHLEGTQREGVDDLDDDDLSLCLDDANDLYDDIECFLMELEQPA
`TTAGGTTTCGGAATGGGTTA` — result for “fitted relative affinity”: 6.28 z-score.
Under “fitted relative affinity”, `TCAGTCTTGGTTCTCAGACT` is recorded as 1.01 z-score.
For `TCATGTCCTCCTCTCTCACT`, “fitted relative affinity” read 2.22 z-score.
For `TTGGGTTCCCTTTTCCTTTA`, “fitted relative affinity” read 2.81 z-score.
`TTAAGTCTCGGTATCGGTTA` — result for “fitted relative affinity”: 0.783 z-score.
`TTAGGTCTCTTACTGCTTTA` — result for “fitted relative affinity”: 0.621 z-score.
`TTGGGTCTCGGTCTCGGTTA`: “fitted relative affinity” 0.658 z-score.
Under “fitted relative affinity”, `CTCTGGGGGGTGGGATGAAG` is recorded as 1.16 z-score.

Sample 3
Target: Prothrombin, mature alpha-thrombin (F2, Homo sapiens, UniProt P00734)
Technique: aptamer microarray, sandwich
Form: DNA with 2'F-ANA
Medium: in vitro
Concentration: 200 nM
Setting: whole 15-mer aptamer, many near background
Together with: Cy3 exosite-II aptamer, 400 nM
Reading: higher = stronger binding
Sequence: GGTTGGTGTGGTTGG
`2'F-ANA at 1 3 4 5 8 12`: “mean fluorescence intensity” 175 a.u.
`2'F-ANA at 1 5 7 8 12 13 14 15` — result for “mean fluorescence intensity”: 50.9 a.u.
Under “mean fluorescence intensity”, `2'F-ANA at 3 6 7 9 10 11 12 14 15` is recorded as 313 a.u.
`2'F-ANA at 1 3 5 6 7 8 10 13 14 15` — result for “mean fluorescence intensity”: 54.8 a.u.
`2'F-ANA at 3 6 7 8 11 12 14 15` — result for “mean fluorescence intensity”: 565 a.u.
`2'F-ANA at 1 2 4 5 7 13 14` — result for “mean fluorescence intensity”: 50.1 a.u.

Mixed results
`PhoQ, residues 284 288 289 292 302 303 AGGLSV` gave a fold induction of 1.13 (PhoP, residues 12 14 15 18 19 NQGLL (Escherichia coli, UniProt P23836); Sort-seq, refers to: YFP reporter; E. coli; PhoQ-PhoP variant library, together with: 10 µM Mg2+; reference: high Mg2+ state, higher = stronger signaling).

Excerpt of the above (sample 2):
`TTAGGTTTCGGAATGGGTTA` — result for “fitted relative affinity”: 6.28 z-score.
